Results gathered from unrelated publications.
Compare with care: the assays were run in different laboratories.
Organism: Pseudomonas aeruginosa

SMILES | assay | test system | conditions | MIC
CC[C@H](C)[C@H](NC(=O)[C@@H](CCCNC(=N)N)NC(=O)[C@H](CCCNC(=N)N)NC(=O)[C@@H]1CCCN1C(=O)[C@@H]1CCCN1C(=O)[C@H](CCCNC(=N)N)NC(=O)[C@@H]1CCCN1C(=O)[C@H](CCCNC(=N)N)NC(=O)[C@@H]1CCCN1C(=O)[C@H](CC(C)C)NC(=O)[C@H](Cc1ccc(O)cc1)NC(=O)[C@H](Cc1c[nH]cn1)NC(=O)[C@@H]1CCCN1C(=O)[C@H](CCCCN)NC(=O)[C@H](CC(=O)O)NC(=O)[C@@H](N)C(C)C)C(=O)N[C@@H](Cc1ccc(O)cc1)C(=O)N[C@@H](CC(N)=O)C(=O)N[C@H](CCCNC(=N)N)C(N)=O | broth microdilution | DSM 1117 | 18 h, 37 °C, 25% MHB2 | 128 µg/mL
CCCCCCCC[C@@H]1NC(=O)[C@@H](Cc2ccccc2)NC(=O)[C@H](CCN)NC(=O)[C@@H](NC(=O)[C@H](CCN)NC(=O)[C@@H](NC(=O)[C@H](CCN)NC(=O)CCCCCCC)[C@@H](C)O)CCNC(=O)[C@H]([C@@H](C)O)NC(=O)[C@H](CCN)NC(=O)[C@H](CCN)NC1=O | broth microdilution | colistin-resistant isolates | – | 0.25 to 1 µg/mL
CC[C@H](C)[C@H](NC(=O)[C@@H](CCCNC(=N)N)NC(=O)[C@H](CCCNC(=N)N)NC(=O)[C@@H]1CCCN1C(=O)[C@@H]1CCCN1C(=O)[C@H](CCCNC(=N)N)NC(=O)[C@@H]1CCCN1C(=O)[C@H](CCCNC(=N)N)NC(=O)[C@@H]1CCCN1C(=O)[C@H](CC(C)C)NC(=O)[C@H](Cc1ccc(O)cc1)NC(=O)[C@@H]1CCCN1C(=O)[C@@H]1CCCN1C(=O)[C@H](CCCCN)NC(=O)[C@H](CC(=O)O)NC(=O)[C@@H](N)C(C)C)C(=O)N[C@@H](Cc1ccc(O)c([N+](=O)[O-])c1)C(=O)N[C@@H](CC(N)=O)C(=O)N[C@H](CCCNC(=N)N)C(N)=O | broth microdilution | DSM 1117 | 18 h, 37 °C, 25% MHB2 | > 128 µg/mL
CC(C)C[C@@H]1NC(=O)[C@@H](CC(C)C)NC(=O)[C@H](CCN)NC(=O)[C@@H](NC(=O)[C@H](CCN)NC(=O)[C@@H](NC(=O)CCCCN=[N+]=[N-])[C@@H](C)O)CCNC(=O)[C@H]([C@@H](C)O)NC(=O)[C@H](CCN)NC(=O)[C@H](CCN)NC1=O | broth microdilution | ATCC 27736, cation-adjusted Mueller-Hinton broth | – | 8 µM
CCCCCCCC(=O)N[C@@H](CCN)C(=O)N[C@H](C(=O)N[C@@H](CCN)C(=O)N[C@H]1CCNC(=O)[C@H]([C@@H](C)O)NC(=O)[C@H](CCN)NC(=O)[C@H](CCN)NC(=O)[C@H](CC(C)C)NC(=O)[C@@H](CCc2ccccc2)NC(=O)[C@H](CCN)NC1=O)[C@@H](C)O | broth microdilution | PAO1, colistin-susceptible | – | 0.25 to 0.5 µg/mL
CN[C@H](CC(C)C)C(=O)N[C@H]1C(=O)N[C@@H](CC(N)=O)C(=O)N[C@H]2C(=O)N[C@H]3C(=O)N[C@H](C(=O)N[C@H](C(=O)NCc4cn(CC(=O)N[C@H](C(=O)N[C@@H](CCN)C(=O)N[C@H]5CCNC(=O)[C@H]([C@@H](C)O)NC(=O)[C@H](CCN)NC(=O)[C@H](CCN)NC(=O)[C@H](CC(C)C)NC(=O)[C@@H](CC(C)C)NC(=O)[C@H](CCN)NC5=O)[C@@H](C)O)nn4)c4cc(O)cc(O)c4-c4cc3ccc4O)[C@H](O)c3ccc(c(Cl)c3)Oc3cc2cc(c3O[C@@H]2O[C@H](CO)[C@@H](O)[C@H](O)[C@H]2O[C@H]2C[C@](C)(N)[C@H](O)[C@H](C)O2)Oc2ccc(cc2Cl)[C@H]1O | broth microdilution | ATCC 25922, cation-adjusted Mueller-Hinton broth | – | 6 µM
CC[C@H](C)[C@H](NC(=O)[C@H](Cc1c[nH]c2ccccc12)NC(=O)[C@H](CCCNC(=N)N)NC(=O)[C@@H](N)CCCNC(=N)N)C(=O)N[C@@H](CCCNC(=N)N)C(=O)N[C@@H](Cc1c[nH]c2ccccc12)C(=O)N[C@H](C(=O)N[C@H](C(N)=O)[C@@H](C)O)[C@@H](C)CC | – | 27023 | – | 32 µg/mL
CC(C)C[C@@H](NC(=O)[C@@H](CC(C)C)NC(=O)[C@@H](CCCCN)NC(=O)[C@@H](CCCCNC(=O)[C@@H](CC(C)C)NC(=O)[C@@H](CC(C)C)NC(=O)[C@@H](CCCCNC(=O)[C@@H](CC(C)C)NC(=O)[C@@H](CCCCN)NC(=O)[C@@H](CCCCNC(=O)[C@@H](CC(C)C)NC(=O)[C@H](N)CCCCN)NC(=O)[C@@H](CC(C)C)NC(=O)[C@H](N)CCCCN)NC(=O)[C@@H](CC(C)C)NC(=O)[C@@H](CCCCN)NC(=O)[C@@H](CCCCNC(=O)[C@@H](CC(C)C)NC(=O)[C@H](N)CCCCN)NC(=O)[C@@H](CC(C)C)NC(=O)[C@H](N)CCCCN)NC(=O)[C@@H](CC(C)C)NC(=O)[C@@H](CC(C)C)NC(=O)[C@@H](CCCCNC(=O)[C@@H](CC(C)C)NC(=O)[C@@H](CCCCN)NC(=O)[C@@H](CCCCNC(=O)[C@@H](CC(C)C)NC(=O)[C@H](N)CCCCN)NC(=O)[C@@H](CC(C)C)NC(=O)[C@H](N)CCCCN)NC(=O)[C@@H](CC(C)C)NC(=O)[C@@H](CCCCN)NC(=O)[C@@H](CCCCNC(=O)[C@@H](CC(C)C)NC(=O)[C@H](N)CCCCN)NC(=O)[C@@H](CC(C)C)NC(=O)[C@H](N)CCCCN)C(N)=O | broth microdilution | ZEM9A, multidrug-resistant clinical isolate | 20 h, 37 °C | 8 µg/mL
CC[C@H](C)[C@H](NC(=O)[C@@H]1CCCN1C(=O)CNC(=O)[C@H](CC(C)C)NC(=O)[C@H](CCCCN)NC(=O)[C@H](CCCNC(=N)N)NC(=O)[C@H](Cc1c[nH]c2ccccc12)NC(=O)[C@H](C)NC(=O)[C@H](CC(N)=O)NC(=O)[C@H](CCCCN)NC(=O)[C@H](CC(C)C)NC(=O)[C@H](CCCCN)NC(=O)[C@H](CC(N)=O)NC(=O)[C@H](CCCNC(=N)N)NC(=O)[C@H](C)NC(=O)[C@H](CCCNC(=N)N)NC(=O)[C@H](CCCNC(=N)N)NC(=O)[C@H](Cc1ccccc1)NC(=O)[C@H](Cc1c[nH]c2ccccc12)NC(=O)CN)C(=O)N[C@H](C(=O)NCC(=O)N1CCC[C@H]1C(=O)N[C@@H](CC(C)C)C(=O)N[C@@H](CC(C)C)C(=O)N[C@H](C(=O)N[C@@H](CCCNC(=N)N)C(=O)O)[C@@H](C)O)C(C)C | broth microdilution | ATCC 27853, Mueller-Hinton broth | 16 to 20 h, 37 °C | 4.39 µg/mL
CC(C)C[C@H](NC(=O)[C@H](CCCCN)NC(=O)C1CCC=CCCC(NC(=O)[C@H](CCCCN)NC(=O)[C@@H](N)CC(C)C)C(=O)N[C@@H](CCCCN)C(=O)NC2CCC=CCCC(NC(=O)[C@H](CCCCN)NC(=O)CNC(=O)[C@H]3CCCN3C(=O)[C@H](CCCCN)NC2=O)C(=O)N[C@@H](CCCCN)C(=O)N1)C(N)=O (stereo partly shown) | broth microdilution | ATCC 9027, Mueller-Hinton broth | 18 h, 37 °C | 64 µM
C#CCOc1ccc(CN[C@@]2(C)C[C@H](O[C@H]3[C@H](Oc4c5cc6cc4Oc4ccc(cc4Cl)[C@@H](O)[C@@H](NC(=O)[C@@H](CC(C)C)NC)C(=O)N[C@@H](CC(N)=O)C(=O)N[C@H]6C(=O)N[C@H]4C(=O)N[C@H](C(=O)N[C@H](C(=O)O)c6cc(O)cc(O)c6-c6cc4ccc6O)[C@H](O)c4ccc(c(Cl)c4)O5)O[C@H](CO)[C@@H](O)[C@@H]3O)O[C@@H](C)[C@H]2O)cc1OC | broth microdilution | ATCC 17978, cation-adjusted Mueller-Hinton broth | – | > 79 µM
CC[C@H](C)[C@H](NC(=O)[C@H](CCCCN)NC(=O)[C@H](CCCCN)NC(=O)[C@H](Cc1ccccc1)NC(=O)[C@H](Cc1ccccc1)NC(=O)[C@H](CCCCN)NC(=O)[C@H](CCCCN)NC(=O)[C@H](Cc1ccccc1)NC(=O)[C@H](CCCNC(=N)N)NC(=O)[C@@H](N)CCCCN)C(=O)N[C@@H](CCCCN)C(=O)N[C@@H](CCCCN)C(=O)N[C@@H](CO)C(=O)N[C@H](C(=O)N[C@@H](CCCCN)C(=O)N[C@@H](CCCCN)C(=O)N[C@@H](CCCNC(=N)N)C(=O)N[C@H](C(=O)N[C@@H](CCCCN)C(=O)N[C@@H](CCCCN)C(=O)N[C@@H](CC(C)C)C(=O)N[C@@H](Cc1ccccc1)C(=O)N[C@@H](CCCCN)C(=O)N[C@@H](CCCCN)C(=O)N1CCC[C@H]1C(=O)N[C@@H](CCCNC(=N)N)C(=O)N[C@H](C(=O)N[C@H](C(=O)N1CCC[C@H]1C(=O)N[C@H](C(=O)N[C@@H](CO)C(=O)N[C@H](C(=O)N1CCC[C@H]1C(=O)N[C@@H](Cc1ccccc1)C(=O)O)[C@@H](C)CC)[C@@H](C)CC)[C@@H](C)CC)C(C)C)C(C)C)C(C)C | CLSI agar dilution | ATCC 27853 | 20 h, 37 °C | 16 µg/mL
CC(C)C[C@@H]1NC(=O)[C@@H](CC(C)C)NC(=O)[C@H](CCN)NC(=O)[C@@H](NC(=O)[C@H](CCN)NC(=O)[C@@H](NC(=O)CN=[N+]=[N-])[C@@H](C)O)CCNC(=O)[C@H]([C@@H](C)O)NC(=O)[C@H](CCN)NC(=O)[C@H](CCN)NC1=O | broth microdilution | ATCC 35218, cation-adjusted Mueller-Hinton broth | – | 63 µM
CCCCCCCC(=O)N[C@@H](CCN)C(=O)N[C@H](C(=O)N[C@@H](CCN)C(=O)N[C@H]1CCNC(=O)[C@H]([C@@H](C)O)NC(=O)[C@H](CCN)NC(=O)[C@H](CCN)NC(=O)[C@H](CC(C)C)NC(=O)[C@@H](Cc2ccccc2)NC(=O)[C@H](CCN)NC1=O)[C@@H](C)O | broth microdilution | colistin-resistant isolates | – | 8 to 16 µg/mL
C#CCNC(=O)[C@H]1NC(=O)[C@H]2NC(=O)[C@H](NC(=O)[C@@H]3NC(=O)[C@H](CC(N)=O)NC(=O)[C@H](NC(=O)[C@@H](CC(C)C)NC)[C@H](O)c4ccc(c(Cl)c4)Oc4cc3cc(c4O[C@@H]3O[C@H](CO)[C@@H](O)[C@H](O)[C@H]3O[C@H]3C[C@](C)(N)[C@H](O)[C@H](C)O3)Oc3ccc(cc3Cl)[C@H]2O)c2ccc(O)c(c2)-c2c(O)cc(O)cc21 | broth microdilution | ATCC 10145, cation-adjusted Mueller-Hinton broth | 18 to 20 h, 37 °C, 0.002% polysorbate 80 | > 128 µg/mL
CC(=O)N[C@@H](CC(C)C)C(=O)N[C@H]1CSSC[C@@H](C(=O)N2CCC[C@H]2C(N)=O)NC(=O)[C@H]([C@@H](C)O)NC(=O)[C@H](C(C)C)NC(=O)[C@H]([C@@H](C)O)NC(=O)CNC(=O)[C@H](CCCCN)NC(=O)[C@H](Cc2ccccc2)NC(=O)[C@H](Cc2ccc(O)cc2)NC(=O)[C@H](CCCCN)NC(=O)[C@H](CCC(=O)O)NC(=O)[C@H](Cc2ccccc2)NC(=O)[C@H](CCCNC(=N)N)NC(=O)[C@H](CCCCN)NC(=O)[C@H](CC(C)C)NC(=O)[C@H](CC(=O)O)NC(=O)[C@@H]2CCCN2C(=O)[C@H](CCCCN)NC(=O)[C@H](C(C)C)NC(=O)[C@H](CCCCN)NC(=O)[C@H](CCCCN)NC(=O)[C@H]([C@@H](C)O)NC1=O | broth dilution | CGMCC strain | 24 h | > 40 µM

A few entries again:
SMILES | assay | test system | conditions | MIC
CC[C@H](C)[C@H](NC(=O)[C@@H]1CCCN1C(=O)CNC(=O)[C@H](CC(C)C)NC(=O)[C@H](CCCCN)NC(=O)[C@H](CCCNC(=N)N)NC(=O)[C@H](Cc1c[nH]c2ccccc12)NC(=O)[C@H](C)NC(=O)[C@H](CC(N)=O)NC(=O)[C@H](CCCCN)NC(=O)[C@H](CC(C)C)NC(=O)[C@H](CCCCN)NC(=O)[C@H](CC(N)=O)NC(=O)[C@H](CCCNC(=N)N)NC(=O)[C@H](C)NC(=O)[C@H](CCCNC(=N)N)NC(=O)[C@H](CCCNC(=N)N)NC(=O)[C@H](Cc1ccccc1)NC(=O)[C@H](Cc1c[nH]c2ccccc12)NC(=O)CN)C(=O)N[C@H](C(=O)NCC(=O)N1CCC[C@H]1C(=O)N[C@@H](CC(C)C)C(=O)N[C@@H](CC(C)C)C(=O)N[C@H](C(=O)N[C@@H](CCCNC(=N)N)C(=O)O)[C@@H](C)O)C(C)C | broth microdilution | ATCC 27853, Mueller-Hinton broth | 16 to 20 h, 37 °C | 4.39 µg/mL
CC(C)C[C@H](NC(=O)[C@H](CCCCN)NC(=O)C1CCC=CCCC(NC(=O)[C@H](CCCCN)NC(=O)[C@@H](N)CC(C)C)C(=O)N[C@@H](CCCCN)C(=O)NC2CCC=CCCC(NC(=O)[C@H](CCCCN)NC(=O)CNC(=O)[C@H]3CCCN3C(=O)[C@H](CCCCN)NC2=O)C(=O)N[C@@H](CCCCN)C(=O)N1)C(N)=O (stereo partly shown) | broth microdilution | ATCC 9027, Mueller-Hinton broth | 18 h, 37 °C | 64 µM
